{"data": "Measured values of several laboratories", "note": "Protocols differ between the studies behind these lines. “And” joins repeats or separate records; there may be more than shown. ± marks the error that the study gave.", "UniProt Q13177, sequence (whole entry, looked up)": "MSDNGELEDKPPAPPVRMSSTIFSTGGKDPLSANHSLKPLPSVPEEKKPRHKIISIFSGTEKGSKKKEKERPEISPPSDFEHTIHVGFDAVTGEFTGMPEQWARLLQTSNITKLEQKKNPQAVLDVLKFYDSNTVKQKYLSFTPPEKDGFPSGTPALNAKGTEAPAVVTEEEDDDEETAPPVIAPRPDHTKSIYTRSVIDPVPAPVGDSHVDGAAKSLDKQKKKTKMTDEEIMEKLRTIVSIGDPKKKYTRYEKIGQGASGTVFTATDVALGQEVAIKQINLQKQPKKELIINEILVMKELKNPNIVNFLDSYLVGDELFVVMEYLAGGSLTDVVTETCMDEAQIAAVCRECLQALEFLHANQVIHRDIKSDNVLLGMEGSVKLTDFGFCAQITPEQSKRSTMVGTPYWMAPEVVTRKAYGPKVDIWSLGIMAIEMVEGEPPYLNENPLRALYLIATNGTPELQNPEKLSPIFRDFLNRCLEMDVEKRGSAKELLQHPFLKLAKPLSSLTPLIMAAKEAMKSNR", "UniProt P45983, sequence (whole entry, looked up)": "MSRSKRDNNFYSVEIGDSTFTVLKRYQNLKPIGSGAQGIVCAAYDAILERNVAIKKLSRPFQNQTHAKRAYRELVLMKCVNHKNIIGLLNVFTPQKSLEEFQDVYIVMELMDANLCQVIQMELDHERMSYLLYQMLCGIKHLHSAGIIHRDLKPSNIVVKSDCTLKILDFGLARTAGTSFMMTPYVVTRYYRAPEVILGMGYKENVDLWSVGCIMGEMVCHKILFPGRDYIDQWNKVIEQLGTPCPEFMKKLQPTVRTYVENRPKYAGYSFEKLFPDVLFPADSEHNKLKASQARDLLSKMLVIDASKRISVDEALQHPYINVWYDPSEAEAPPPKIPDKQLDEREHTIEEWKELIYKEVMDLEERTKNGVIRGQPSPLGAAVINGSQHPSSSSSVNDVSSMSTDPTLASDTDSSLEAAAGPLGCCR", "UniProt Q14012, sequence (whole entry, looked up)": "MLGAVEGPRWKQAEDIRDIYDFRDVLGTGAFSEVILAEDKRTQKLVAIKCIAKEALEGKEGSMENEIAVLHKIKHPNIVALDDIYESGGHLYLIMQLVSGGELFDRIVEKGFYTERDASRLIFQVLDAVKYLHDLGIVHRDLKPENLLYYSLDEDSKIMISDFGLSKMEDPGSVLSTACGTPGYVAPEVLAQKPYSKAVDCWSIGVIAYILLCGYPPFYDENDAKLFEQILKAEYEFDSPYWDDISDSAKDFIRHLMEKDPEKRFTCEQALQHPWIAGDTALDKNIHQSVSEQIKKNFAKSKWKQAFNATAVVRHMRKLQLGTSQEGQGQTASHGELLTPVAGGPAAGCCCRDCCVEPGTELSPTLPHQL"}
{"Compound": "Cc1ccc2c(n1)c(-c1cccc(S(C)(=O)=O)c1)c(C)n2C/C(F)=C/CN", "tested on": "NMDA glutamate receptor (rat)", "assay": "binding, radioligand binding", "system": "rat tissue", "setting": "10 µM, Phencyclidine", "endpoint": "inhibition", "result": "0%"}
{"Compound": "CC[C@@H]1CN2CCc3c([nH]c4cccc(OC)c34)[C@@H]2C[C@@H]1/C(=C\\OC)C(=O)OC", "tested on": "rabbit anti-mitragynine polyclonal IgG", "assay": "antigen binding, competitor, competitive indirect ELISA", "system": "10% methanol", "setting": "30 min antibody-standard, 90 min antibody-antigen incubation", "endpoint": "IC50", "result": "1.21 µg/mL and 1 µg/mL"}
{"Compound": "CS(C)(=O)=Nc1ccc(-c2ccc(-c3nc4cc(O[C@@H]5CO[C@H]6[C@@H]5OC[C@H]6O)[nH]c4cc3F)cc2)cc1", "tested on": "PAK2 (Homo sapiens, UniProt Q13177)", "assay": "enzyme activity, inhibitor", "setting": "10 µM", "endpoint": "inhibition", "result": "0%"}
{"Compound": "O=C1NC(=O)c2c1c1cc(F)c[n+]3c1c1c2c2cc(O)ccc2[n]1[Ru-4]312([N]=C=S)[S+]3CC[S+]1CC[S+]2CC3 (stereo not drawn)", "tested on": "MAPK8 (Homo sapiens, UniProt P45983)", "assay": "enzyme activity", "setting": "100 nM, human enzyme, with: 10 µM ATP", "scale": "reference: untreated", "endpoint": "remaining activity", "result": "103%"}
{"Compound": "COc1ccccc1-c1n[nH]c2nc(N[C@H]3CC[C@H](NS(=O)(=O)CC(C)C)CC3)ncc12", "tested on": "LMJF.03.0980", "assay": "bead binding competition", "system": "Leishmania donovani extract", "setting": "10 µM", "scale": "reference: vehicle", "endpoint": "relative abundance", "result": 1.15}
{"Compound": "CC(C)[C@H](NC(=O)[C@H](CCCNC(=N)N)NC(=O)[C@H](Cc1c[nH]c2ccccc12)NC(=O)CN)C(=O)N[C@@H](CO)C(=O)N[C@@H](CCC(=O)O)C(=O)N[C@@H](Cc1ccccc1)C(=O)NCC(=O)NCC(=O)NCC(=O)N[C@@H](CO)C(=O)N[C@@H](CCCCNC(=O)CCCC[C@@H]1SC[C@@H]2NC(=O)N[C@@H]21)C(=O)O", "tested on": "cowpea mosaic virus particles", "assay": "binding, competitive phage ELISA", "system": "cowpea mosaic virus", "endpoint": "IC50", "result": "1140 nM"}
{"Compound": "CSCC[C@H](NC(=O)[C@H](CCC(=O)O)NC(=O)[C@H](CS)NC(=O)[C@H](Cc1ccccc1)NC(=O)[C@H](CC(N)=O)NC(=O)[C@@H]1CCCN1C(=O)[C@@H]1CCCN1C(=O)[C@H](CC(N)=O)NC(=O)[C@H](CC(C)C)NC(=O)[C@H](CCSC)NC(=O)[C@H](CC(C)C)NC(=O)[C@H](CS)NC(=O)[C@H](CCC(N)=O)NC(=O)CNC(=O)[C@H](Cc1ccc(O)cc1)NC(=O)[C@@H](NC(=O)[C@@H](NC(=O)[C@@H]1CCCN1C(=O)[C@@H](N)CS)C(C)C)[C@@H](C)O)C(=O)N[C@@H](CC(=O)O)C(=O)NCC(=O)N[C@@H](CCC(N)=O)C(=O)N[C@@H](CS)C(=O)N[C@@H](CCCCN)C(=O)O", "tested on": "JNK (mouse)", "assay": "Western blot", "system": "RAW264.7", "setting": "1 µg/mL", "scale": "reference: vehicle", "endpoint": "JNK/β-actin ratio", "result": "decreased"}
{"Compound": "O=C1NC2(CC2)COc2ncc(F)cc2[C@H]2COCCN2c2ccn3ncc1c3n2", "system": "Sprague-Dawley rat, female, serum", "setting": "oral, 20 mg/kg/day, end of recovery, 4-week subacute toxicity", "endpoint": "serum hepatic lipase activity", "result": "3.4 ± 0.1 U/L"}
{"Compound": "CCOC(=O)[C@](CC)(CCCSCCOCCOCCNC(=O)c1ccc(-c2c3ccc(=N)c(S(=O)(=O)O)c-3oc3c(S(=O)(=O)O)c(N)ccc23)c(C(=O)O)c1)NC(=O)c1ccc(C2CC2)c(Cc2ccc(F)cc2)n1", "tested on": "HIV-1 protease", "assay": "enzyme activity", "setting": "10 µM", "endpoint": "inhibition", "result": "47%"}
{"Compound": "CC(C)(C)C(=O)OCOP(=O)(OCOC(=O)C(C)(C)C)C1CCCN(O)C1=O (stereo not drawn)", "tested on": "SF-268", "endpoint": "TGI", "result": "20.2 µM"}
{"Compound": "COc1ccc(C(C)(C)CC(C)(C)C)cc1", "tested on": "HBV core protein Cp149 dimer", "assay": "solution NMR", "setting": "4 molar equivalents, pH 7.5, 295 K, average over eight residues", "scale": "reference: apo Cp149 dimer", "endpoint": "average chemical shift perturbation", "result": "0.077 ppm"}
{"Compound": "COCC(=O)N1CCc2cc(-c3csc(NC(=O)c4cc(OC)cc(OC)c4)n3)ccc21", "tested on": "NMDA receptor phencyclidine site, rat", "assay": "radioligand binding", "setting": "10 µM", "endpoint": "inhibition", "result": "1%"}
{"Compound": "CN(C)[C@H]1C[C@@]23CC[C@@]4(O2)C(=CC[C@]2(C)[C@@H](c5ccc6ccncc6c5)CC[C@H]24)C=C3[C@@H](O)[C@@H]1O", "tested on": "CAMK1 (Homo sapiens, UniProt Q14012)", "assay": "ATP probe labelling, inhibitor, KiNativ profiling", "setting": "1 µM", "endpoint": "inhibition", "result": "-4.2%"}
{"Compound": "Nc1ncc(-c2cc(-c3cnn(CC(F)(F)F)c3)ncc2F)nc1C(=O)NC1CNCC(F)C1 (stereo not drawn)", "tested on": "ABL1(T315I)-phosphorylated", "assay": "KINOMEscan competition binding", "setting": "1 µM", "scale": "reference: DMSO control", "endpoint": "remaining binding", "result": "58%"}
{"Compound": "CC[C@H](C)[C@@H]1NC(=O)CNC(=O)[C@H](CC(=O)O)NC(=O)[C@H](CC(=O)O)NC(=O)[C@@H]2CSSC[C@@H]3NC(=O)[C@H](Cc4c[nH]cn4)NC(=O)[C@H](CCCNC(=N)N)NC(=O)[C@H](CCCNC(=N)N)NC(=O)[C@@H](NC(=O)[C@H](CO)NC(=O)[C@@H](N)Cc4c[nH]cn4)CSSC[C@H](NC(=O)[C@H](C)NC(=O)[C@H](Cc4c[nH]c5ccccc45)NC(=O)CNC(=O)[C@H](CSSC[C@@H](C(=O)N[C@@H](CCCCN)C(=O)N4CCC[C@H]4C(=O)N[C@@H](CC(C)C)C(=O)N[C@@H](CCCNC(=N)N)C(=O)N[C@H](C(=O)O)C(C)C)NC1=O)NC(=O)[C@H](CCCNC(=N)N)NC(=O)[C@H](CCCNC(=N)N)NC(=O)[C@H](CC(N)=O)NC(=O)[C@H](CCC(=O)O)NC(=O)[C@H](Cc1c[nH]cn1)NC3=O)C(=O)N[C@@H](Cc1ccc(O)cc1)C(=O)N2", "tested on": "hKv1.3 human", "setting": "concentration not given", "endpoint": "ion current", "result": "no effect"}
{"note": "Excerpt of the above:"}
{"Compound": "CN(C)[C@H]1C[C@@]23CC[C@@]4(O2)C(=CC[C@]2(C)[C@@H](c5ccc6ccncc6c5)CC[C@H]24)C=C3[C@@H](O)[C@@H]1O", "tested on": "CAMK1 (Homo sapiens, UniProt Q14012)", "assay": "ATP probe labelling, inhibitor, KiNativ profiling", "setting": "1 µM", "endpoint": "inhibition", "result": "-4.2%"}
{"Compound": "Nc1ncc(-c2cc(-c3cnn(CC(F)(F)F)c3)ncc2F)nc1C(=O)NC1CNCC(F)C1 (stereo not drawn)", "tested on": "ABL1(T315I)-phosphorylated", "assay": "KINOMEscan competition binding", "setting": "1 µM", "scale": "reference: DMSO control", "endpoint": "remaining binding", "result": "58%"}
